{"data": "Experimental data gathered from unrelated publications", "note": "Lines come from different studies, so protocols differ. Several values in a cell are separate wells, animals, samples, runs or records. Numbers after ± are the reported error."}
{"Compound": "O=C(c1ccc([C@H]2[C@@H](F)[C@@H](F)C[C@@H](F)[C@H]2F)cc1)N1CCC(F)CC1", "assay": "hepatocyte stability", "test system": "cryopreserved rat hepatocytes", "conditions": "1 µM", "measurement": "hepatic clearance", "value": "39 mL/min/kg"}
{"Compound": "CC(C)C[C@@H]1NC(=O)[C@H](CO)NC(=O)[C@H](CC(=O)O)NC(=O)[C@@H]2CCCN2C(=O)[C@H]2CCCN2C(=O)[C@H](C(C)C)NC(=O)[C@H](CC(=O)O)NC(=O)[C@H](CC(N)=O)NC(=O)[C@H](CCCNC(=N)N)NC(=O)[C@H]([C@@H](C)O)NC(=O)[C@H](C(C)C)NC(=O)CCNC(=O)CCNC(=O)[C@H](Cc2ccccc2)NC(=O)[C@H](C(C)C)NC(=O)[C@H](CC(C)C)NC1=O", "tested on": "HEK-293T", "assay": "subcellular fractionation LC-MS", "test system": "cytoplasmic fraction", "conditions": "20 µM, 24 h", "measurement": "concentration", "value": "not detected"}
{"Compound": "O=C1NC2(CC2)COc2ncc(F)cc2[C@H]2COCCN2c2ccn3ncc1c3n2", "tested on": "Salmonella typhimurium", "assay": "Ames test", "test system": "TA97a", "conditions": "1500 µg/plate, 48 h, added: without S9", "measurement": "revertant colonies", "value": "82 ± 10 revertants/plate"}
{"Compound": "N#C[C@@H]1CC(F)(F)CN1C(=O)CNC(=O)c1ccnc2c(NC(=O)CCOCCOCCOCCOCCOCCOCCNC(=O)[C@H](CCCCNC(=O)CN3CCN(CC(=O)[O-])CCN(CC(=O)[O-])CCN(CC(=O)[O-])CC3)NC(=O)CCCc3ccc(I)cc3)cccc12.[177Lu+3]", "tested on": "U-87 MG tumour model", "test system": "host not given, tumour", "conditions": "1 h, tumour-bearing", "measurement": "tracer uptake", "value": "11.3 %ID/g"}
{"Compound": "O=C(CN1CCCCC1)Nc1ccc([C@H]2[C@@H](F)[C@@H](F)C[C@@H](F)[C@H]2F)cc1", "test system": "mouse liver microsomes", "conditions": "1 µM", "measurement": "hepatic clearance", "value": "53 mL/min/kg"}
{"Compound": "COC1CN([C@H]2CC[C@H]([C@@]3(C)Oc4c(Cl)cc(C(=O)NCc5c(SC)cc(C)[nH]c5=O)c(C)c4O3)CC2)C1", "assay": "RNA-seq, measured: ZMYND15 mouse homolog", "test system": "mouse, HT-1376 xenograft, whole blood", "conditions": "dose not given", "how to read": "relative to: vehicle", "measurement": "log2 fold change", "value": 1.93}
{"Compound": "CCCC[C@H](NC(=O)COCCOCCNC(=O)CN1CCN(CC(=O)O)CCN(CC(=O)O)CC1)C(=O)N[C@H]1CC(=O)NCCCC[C@@H](C(N)=O)NC(=O)[C@H](Cc2c[nH]c3ccccc23)NC(=O)[C@H](CCCNC(=N)N)NC(=O)[C@@H](Cc2ccccc2)NC(=O)[C@H](Cc2c[nH]cn2)NC1=O [technetium-99m labelled]", "test system": "C57 mouse, intestine", "conditions": "intravenous, 0.037 MBq, 24 h", "measurement": "tissue uptake", "value": "0.83 ± 0.67 %ID"}
{"Compound": "COC(=O)c1cccc(C(=O)c2c(C)[nH]c3ccccc23)n1", "tested on": "Aryl hydrocarbon receptor (AHR, Homo sapiens, UniProt P35869)", "assay": "reporter gene, agonist, XRE luciferase", "test system": "HepG2", "conditions": "10 µM", "how to read": "relative to: ITE", "measurement": "activity at 10 µM", "value": "41%"}
{"Compound": "CC(C)C[C@H](NC(=O)[C@@H](CCCCNC(=O)[C@@H](Cc1ccccc1)NC(=O)CCCCCNC(=O)CN1CCN(CC(=O)O)CCN(CC(=O)O)CCN(CC(=O)O)CC1)NC(=O)[C@H](Cc1ccc(O)cc1)NC(=O)[C@H](CO)NC(=O)[C@H](Cc1c[nH]c2ccccc12)NC(=O)[C@H](Cc1c[nH]cn1)NC(=O)[C@@H]1CCC(=O)N1)C(=O)N[C@@H](CCCNC(=N)N)C(=O)N1CCC[C@H]1C(=O)NCC(N)=O [indium-111 labelled]", "test system": "female athymic nude mice, bone", "conditions": "intravenous, 0.037 MBq, 0.5 h", "measurement": "tissue uptake", "value": "0.32 ± 0.17 %ID/g"}
{"Compound": "Cc1ccc(-c2ccc([C@H]3[C@@H](F)[C@@H](F)C[C@@H](F)[C@H]3F)cc2)cn1", "assay": "liver microsome stability", "test system": "mouse liver microsomes", "conditions": "1 µM", "measurement": "hepatic clearance", "value": "70 mL/min/kg"}
{"Compound": "O=C1C2CC3CC1CC(C(=O)N1CCN(c4ccc([N+](=O)[O-])c5ncccc45)CC1)(C3)C2", "tested on": "Salmonella typhimurium", "assay": "Ames test", "test system": "TA100", "conditions": "0.31 µg/well, with S9", "how to read": "relative to: vehicle", "measurement": "revertant fold increase", "value": 1.1}
{"Compound": "COc1cccc(OC)c1-c1cc(C(=O)NC2(C(=O)O)C3CC4CC(C3)CC2C4)nn1-c1ccc(C(=O)N(C)CCOCCN(C)C(=O)[C@H](CCCCNC(=O)[C@H](CC(C)C)NC(=O)C2OC2C(=O)O)NC(=O)CN2CCN(CC(=O)[O-])CCN(CC(=O)[O-])CCN(CC(=O)[O-])CC2)cc1C(C)C.[177Lu+3] (mixture of isomers)", "tested on": "HT-29 tumour model", "test system": "host not given, pancreas", "conditions": "24 h, tumour-bearing", "measurement": "tracer uptake", "value": "0.5 %ID/g"}
{"Compound": "F[C@@H]1[C@H](c2ccc(-c3cncnc3)cc2)[C@H](F)[C@H](F)C[C@@H]1F", "assay": "hepatocyte stability", "test system": "cryopreserved rat hepatocytes", "conditions": "1 µM", "measurement": "hepatic clearance", "value": "24 mL/min/kg"}
{"Compound": "O=C(c1ccc(OCCN2CCCCC2)cc1)c1c(-c2ccc(O[C@@H]3O[C@H](C(=O)O)[C@@H](O)[C@H](O)[C@H]3O)cc2)sc2cc(O)ccc12", "tested on": "ATP-binding cassette sub-family C member 2 (ABCC2, Homo sapiens, UniProt Q92887)", "assay": "substrate", "test system": "Sf9 membrane vesicles", "conditions": "pH 7", "measurement": "intrinsic clearance", "value": "37.2 µL/min/mg protein"}
{"Compound": "N#C[C@@H]1CCCN1C(=O)CNC(=O)c1ccnc2ccc(OCCCN3CCN(C(=O)CCc4ccc(O)c(CN5CCN6CC(=O)[O][Al-]([18F])([O]C(=O)C5)[O]c5ccc(CCC(=O)N7CCN(CCCOc8ccc9nccc(C(=O)NCC(=O)N%10CCC[C@H]%10C#N)c9c8)CC7)cc5C6)c4)CC3)cc12 (stereo partly drawn)", "tested on": "U-87 MG tumour model", "test system": "host not given, blood", "conditions": "2 h, tumour-bearing", "measurement": "tracer uptake", "value": "3.83 %ID/g"}
{"Compound": "Cc1nn(-c2cccc(N)c2)c(=O)c2cnc(Nc3ccc(N4CCNCC4)cc3)nc12", "tested on": "Calcium/calmodulin-dependent protein kinase type 1 (CAMK1, Homo sapiens, UniProt Q14012)", "assay": "kinase activity, inhibitor, SelectScreen kinase profiling", "measurement": "IC50", "value": "1700 nM"}
{"Compound": "CCN(CC)CC#CCNc1ccnc2cc(Cl)ccc12", "tested on": "Salmonella typhimurium", "assay": "mini-Ames test", "test system": "TA102", "conditions": "1000.0 µg/well, with rat liver S9", "measurement": "mean revertants", "value": "80 revertants/well"}
{"Compound": "Nc1ncc(-c2cc(-c3cnn(CC(F)(F)F)c3)ncc2F)nc1C(=O)NC1CNCC(F)C1 (stereo not drawn)", "tested on": "PRKD2", "assay": "KINOMEscan", "conditions": "1 µM", "how to read": "relative to: DMSO control", "measurement": "remaining binding", "value": "77%"}
{"Compound": "C=CC(=O)Nc1cccc(Cn2ncc3cnc(Nc4cnn(CCOC)c4)nc32)c1", "tested on": "MARK1 human", "assay": "binding, KINOMEscan", "conditions": "100 nM", "how to read": "lower = stronger binding", "measurement": "percent of control", "value": "85%"}
{"Compound": "C=C1CC[C@H](OCCCNC(=O)CCOCCOCCOCCOCCOCCOCCOCCOCCOCCOCCOCCOCCOCCOCCOCCOCCOCCOCCOCCOCCOCCOCCOCCOCCOCCOCCOCCOCCOCCOCCOCCOCCOCCOCCOCCOCCNC(=O)CCN2C(=O)CC(SC[C@H](NC(=O)[C@H](Cc3ccccc3)NC(=O)[C@H](CC(N)=O)NC(=O)[C@H](Cc3c[nH]cn3)NC(=O)[C@@H](NC(=O)[C@H](CC(=O)O)NC(=O)[C@H](CCC(N)=O)NC(=O)[C@H](CC(C)C)NC(=O)[C@H](CCCCN)NC(=O)[C@H](CCCCN)NC(=O)[C@H](CCCNC(=N)N)NC(=O)[C@H](CC(C)C)NC(=O)[C@H](Cc3c[nH]c4ccccc34)NC(=O)[C@H](CCC(=O)O)NC(=O)[C@@H](NC(=O)[C@H](CCCNC(=N)N)NC(=O)[C@H](CCC(=O)O)NC(=O)[C@H](CCSC)NC(=O)[C@H](CO)NC(=O)[C@H](CC(N)=O)NC(=O)[C@H](CC(C)C)NC(=O)[C@H](Cc3c[nH]cn3)NC(=O)[C@H](CCCCN)NC(=O)CNC(=O)[C@H](CC(C)C)NC(=O)[C@H](CC(N)=O)NC(=O)[C@H](Cc3c[nH]cn3)NC(=O)[C@H](CCSC)NC(=O)[C@H](CC(C)C)NC(=O)[C@H](CCC(N)=O)NC(=O)[C@@H](NC(=O)[C@H](CCC(=O)O)NC(=O)[C@H](CO)NC(=O)[C@@H](NC(=O)[C@@H](N)CO)C(C)C)[C@@H](C)CC)C(C)C)C(C)C)C(=O)O)C2=O)C/C1=C/C=C1\\CCC[C@]2(C)[C@@H]([C@H](C)CCCC(C)(C)O)CC[C@@H]12 (stereo partly drawn)", "test system": "rat, plasma", "conditions": "subcutaneous, 300 µg/kg, single dose", "measurement": "MRT", "value": "13.6 h"}
{"Compound": "CNC(=O)C1CCCN(C(=O)C2CC3CCC2N3C(=O)[C@@H]2C[C@@H](O)CN2C(=O)NCc2cccc(Cl)c2F)C1 (mixture of isomers)", "tested on": "Cytochrome P450 2C8 (CYP2C8, Homo sapiens, UniProt P10632)", "assay": "preincubation without NADPH", "test system": "human", "conditions": "0.617 µM", "how to read": "relative to: negative control", "measurement": "remaining activity", "value": "86.7% and 82.8% and 92.2%"}
{"note": "For quick reference, copied from above:"}
{"Compound": "COC1CN([C@H]2CC[C@H]([C@@]3(C)Oc4c(Cl)cc(C(=O)NCc5c(SC)cc(C)[nH]c5=O)c(C)c4O3)CC2)C1", "assay": "RNA-seq, measured: ZMYND15 mouse homolog", "test system": "mouse, HT-1376 xenograft, whole blood", "conditions": "dose not given", "how to read": "relative to: vehicle", "measurement": "log2 fold change", "value": 1.93}
{"Compound": "O=C(CN1CCCCC1)Nc1ccc([C@H]2[C@@H](F)[C@@H](F)C[C@@H](F)[C@H]2F)cc1", "test system": "mouse liver microsomes", "conditions": "1 µM", "measurement": "hepatic clearance", "value": "53 mL/min/kg"}
{"Compound": "COc1cccc(OC)c1-c1cc(C(=O)NC2(C(=O)O)C3CC4CC(C3)CC2C4)nn1-c1ccc(C(=O)N(C)CCOCCN(C)C(=O)[C@H](CCCCNC(=O)[C@H](CC(C)C)NC(=O)C2OC2C(=O)O)NC(=O)CN2CCN(CC(=O)[O-])CCN(CC(=O)[O-])CCN(CC(=O)[O-])CC2)cc1C(C)C.[177Lu+3] (mixture of isomers)", "tested on": "HT-29 tumour model", "test system": "host not given, pancreas", "conditions": "24 h, tumour-bearing", "measurement": "tracer uptake", "value": "0.5 %ID/g"}
